Experimental data collected from several papers.
Every numbered part comes from another study and shows a few of its results, in no order. Positions count from the first letter of the parent shown.

Series 1
Target: RING finger protein unkempt homolog, zinc fingers 1-6, GST-SBP tag (UNK, Homo sapiens, UniProt Q9C0B0, residues 30-357)
Method: RNA Bind-n-Seq
Form: RNA
Sample: in vitro
Concentration: not given
Setting: RNA with constant flanks, human and mouse sites, ends assumed
Relative to: input RNA pool
Direction: higher = stronger binding
Target sequence (chain): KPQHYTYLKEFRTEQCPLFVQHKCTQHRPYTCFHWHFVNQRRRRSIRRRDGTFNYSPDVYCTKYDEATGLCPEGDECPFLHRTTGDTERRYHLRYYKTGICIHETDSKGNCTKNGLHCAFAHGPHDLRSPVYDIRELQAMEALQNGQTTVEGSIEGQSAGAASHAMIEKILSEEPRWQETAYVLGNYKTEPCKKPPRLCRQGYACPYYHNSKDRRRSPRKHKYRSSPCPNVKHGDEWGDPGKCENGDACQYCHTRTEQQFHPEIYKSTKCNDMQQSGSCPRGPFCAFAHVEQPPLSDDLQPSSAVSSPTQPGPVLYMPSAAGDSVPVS
| Sequence | bound/input enrichment [ratio] |
| --- | --- |
| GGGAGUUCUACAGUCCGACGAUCAAAAGCAACGACUUCGUAUGCCCCAUCUGCUUUGAUAUGAUUGAAGAAGCAUACAUGACAAAAUGUGGCCACAGCUUUUGCUACAAGUGUAUUCAUCAGAGUUUGGAGGACAAUAAUAGACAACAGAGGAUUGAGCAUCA | 0.283 |
| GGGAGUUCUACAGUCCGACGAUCGUGUCCUGGUCCCAGUUCAACAGGGAGAAUUUACCAGGACGGAAUUACACUUUCUGGCAAUGGUUUGACGGUGUGAUGGAAGUGUUAAAAAAACAUCUCAAGCCUCAUUGGAAUGAUGGGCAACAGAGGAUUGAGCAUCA | 0.271 |
| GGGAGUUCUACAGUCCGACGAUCAUCACCACCAAGGCUGAUAUCUGGGCACUGGGAUGUCUACUCUAUAAACUUUGUUUCUUCACUCUUCCUUUUGGUGAGAGUCAGGUUGCUAUCUGUGAUGGCAACUUCACCAUCCCAGACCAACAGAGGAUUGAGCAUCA | 0.0748 |
| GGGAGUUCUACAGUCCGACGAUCUGAGUGAGCAGAUGAUUGAAUAUUGAUGUCAGCAUCCUUGAACACACUCAGAUGAGCAACAUAGAGCUUCUGCUUCUAUUUAAAAUGAUGCUGGGUUUGAUUGUGGUCCGAAGCUUUGAACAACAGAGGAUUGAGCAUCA | 0.0902 |
| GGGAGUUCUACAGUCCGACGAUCGCUAUCCGAGAUGCAGGUUUUGAAAUCUCAGCUAUGCAGAUGUUCAAUAUGGAUCGGGUUAAUGUUGAGGAAUUCUAUGAAGUUUAUAAAGGAGUAGUGACCGAAUAUCAUGACAUGGUGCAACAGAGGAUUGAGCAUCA | 0.43 |
| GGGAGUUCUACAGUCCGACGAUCAGCAAGAAGAAUAACAUAUUCGCCCAGUUCCGGAAGAAUGACCGAGACAGACAGAAGCUGAUAGAGACAGUGGUGAGACAGCUCAGAGGCUUGGUGACUGGUAUGUCCCAGCACACGUAGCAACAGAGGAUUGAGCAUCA | 0.248 |
| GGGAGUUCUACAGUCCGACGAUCAGACGCAAGAUGGCUGUCCUCUCUAAGGAAUAUGGUUUUGUGCUUCUAACUGGUGCUGCCAGCUUUAUAAUGGUGGCCCACCUAGCCAUCAAUGUUUCCAAGGCCCGCAAGAAGUACAAACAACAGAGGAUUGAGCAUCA | 0.299 |
| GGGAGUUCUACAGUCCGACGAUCGUCAGUACACCAAGUUCUGGUCUGCUCAUGCUUCAUUGUCCAGAAAGCAGCAGGAAAUUGUAGUUCCGUUGUCAUCAAGCAGGAAGCAAAUGCAACACCGACCAAGGCAGUUUAGGUCAACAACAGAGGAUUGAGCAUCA | 0.482 |
| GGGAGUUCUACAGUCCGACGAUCCAAGAAGAGAUGAGUGAGAUGCAGAAAAAGAUUAAUGAAAUAGAGAAUUUAAAGAAUGAAUUAAAGAACAAAGAAUUGACAUUGGAACAUAUGGAAACAGAGAGGCUUGAGUUGGCUCAGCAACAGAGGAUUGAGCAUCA | 12.9 |
| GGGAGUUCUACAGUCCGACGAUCAUUUGUUGGUGGGUUUGGGGGAACACAUCUCCUCCUGGCAUAUUUGAACACAUUCUCUUCCUCUUCGGCUGAUGUUCUGUCUUUGACCUCGUUCUUCUCCCGAGUUUUCACUGAGAGUCCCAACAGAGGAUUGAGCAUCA | 0.399 |
| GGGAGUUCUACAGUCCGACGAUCCGAUUGGAGAAGGUGUAUCUGAAGAACAGUGUCAUGGAGCUGAUUGCAAAUGGAACAUUGAACAUUUUGGAAGAGGAGAACCAUAUUAAAGAUGCUCUGUCUCGAAUUGUAGUGGAAAUGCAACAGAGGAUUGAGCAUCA | 0.22 |

Series 2
Target: JUND, bZIP domain (human)
Method: DHFR protein complementation
Sample: yeast
Setting: single substitutions, most at no-binding floor
Relative to: wild-type JUN-FOS pair
Direction: higher = stronger binding
Starting sequence: JUN, bZIP domain (human); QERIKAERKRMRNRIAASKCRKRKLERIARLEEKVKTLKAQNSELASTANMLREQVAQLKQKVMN
| Change | binding fitness [natural log] |
| --- | --- |
| E54W | -1.3 |
| L52V | -1.43 |
| V56K | -1.31 |
| R53C | -1.39 |
| E32H | -1.21 |
| L38Q | -1.51 |
| N42F | -1.4 |
| L45T | -1.49 |
| L52P | -1.39 |
| L52S | -1.46 |
| L31T | -1.39 |
| E33V | -1.21 |
| L52E | -1.5 |
| L59W | -1.27 |

Series 3
Target: Interferon regulatory factor 3, full length, phosphomimetic (IRF3, Homo sapiens, UniProt Q14653, residues 1-427, S386D/S396D/S398D/S402D/T404D/S405D)
Chain of UniProt Q14653 (whole entry, unmodified, looked up): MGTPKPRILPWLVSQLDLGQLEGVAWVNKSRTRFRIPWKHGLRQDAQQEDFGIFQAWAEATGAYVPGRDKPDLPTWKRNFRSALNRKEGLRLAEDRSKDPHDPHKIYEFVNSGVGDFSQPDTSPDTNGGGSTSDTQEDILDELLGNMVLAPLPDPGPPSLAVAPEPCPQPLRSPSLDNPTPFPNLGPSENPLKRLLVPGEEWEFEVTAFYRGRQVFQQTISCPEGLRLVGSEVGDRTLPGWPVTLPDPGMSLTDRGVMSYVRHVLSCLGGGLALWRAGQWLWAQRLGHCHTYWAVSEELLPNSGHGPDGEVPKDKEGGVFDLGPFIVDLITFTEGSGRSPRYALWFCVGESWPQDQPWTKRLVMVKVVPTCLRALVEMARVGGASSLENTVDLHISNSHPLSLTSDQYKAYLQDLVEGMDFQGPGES
Method: protein-binding microarray
Form: double-stranded DNA, one strand shown
Sample: in vitro
Concentration: 2540 nM top
Setting: 60-bp whole probe
With: salmon DNA 0.4 mg/ml
Relative to: random background probes
Direction: higher = stronger binding
All sequences stand within: GCCTAGCAC … GTCTTGATTCGCTTGACGCTGCTG
| Sequence | fitted relative affinity [z-score] |
| --- | --- |
| GGCGGTTTCCTTTTCCTGACGTGCTAG | 11.1 |
| GACGATTTCGGGCCTGGAGACGTGCTA | 0.729 |
| TCATGTATATACTATATGACTGTGCTA | 0.146 |
| TTAGGACTGCGTTTCGGTTAGTGCTAG | 2.76 |
| TTAGATATCAGGTTCGATTAGTGCTAG | 0.955 |
| TCAATATTATATCTGTGACTGTGCTAG | 0.305 |
| TTAGATGTCAGTCTCGATTAGTGCTAG | 0.675 |
| GACGGTTTCTTTTCCCTGACGTGCTAG | 4.8 |
| GACGTTATCGGGTATCGAGACGTGCTA | 0.368 |
| AAGACTTTGCTCTGTGCGTAGGTGCTA | -0.642 |
| GACTGTCTCCTACTGCTGACGTGCTAG | 1.13 |
| GACGGTATCCTCCTCCTGACGTGCTAG | 2.36 |
| CCCTTACCGCATATCGGGGTGTGCTAG | 1.45 |
| GACGGACTGCTACCGCTGACGTGCTAG | -0.728 |
| GAAGGTTCCGGTTTCGGGACGTGCTAG | 6.46 |
| TGGACTGTGTGTTTGAGTCTGTGCTAG | -0.858 |
| ATTGTTTCCTCTTTCACTGCGTGCTAG | 4.85 |
| GAGGGTATCGGGTTTCGGGACGTGCTA | 2.04 |
| GACGGACTGGATCTCGGGACGTGCTAG | -0.35 |

Series 4
Target: CCNF, cyclin fold, Cln2 fusion (human)
Method: yeast growth competition, sequencing
Sample: yeast
Setting: strong parent motif
Relative to: not given
Direction: higher = stronger binding
Starting sequence: SCAPER docking peptide (human); SNARRSLNFGGST
| Change | normalised enrichment score |
| --- | --- |
| SAARRSLNFGGST [N2A] | 5.7 |
| SVARRSLNFGGST [N2V] | 6.33 |
| SNARRSLVFGGST [N8V] | 5.56 |
| SNAARSLNFGGST [R4A] | 4.68 |
| SNARRSLNFGGPT [S12P] | 8.07 |
| SNARNSLNFGGST [R5N] | -0.227 |
| SNARRSLNVGGST [F9V] | 0.605 |
| SNARRSLNFGDST [G11D] | 7.68 |
| SNARDSLNFGGST [R5D] | -0.0131 |
| SNAGRSLNFGGST [R4G] | 1.69 |
| SNARRSLAFGGST [N8A] | 5.08 |
| SNARRSLNFGGHT [S12H] | 7.71 |
| SNARRSLNFQGST [G10Q] | 6.33 |
| SNARRPLNFGGST [S6P] | 4.28 |
| SPARRSLNFGGST [N2P] | 4.62 |
| SNARRSLNTGGST [F9T] | 0.666 |
| SNACRSLNFGGST [R4C] | 6.46 |
| SNARRSDNFGGST [L7D] | 1.42 |
| SNAVRSLNFGGST [R4V] | 5.48 |

Series 5
Target: Histone acetyltransferase KAT6A, both winged helices, GST fusion (KAT6A, Homo sapiens, UniProt Q92794, residues 1-181)
Method: protein binding microarray
Form: double-stranded DNA, one strand shown
Sample: in vitro
Concentration: not given
Setting: 8-mer, flanks averaged, mean of 2 arrays, mostly near background
Relative to: not given
Direction: higher = stronger binding
Residues (chain): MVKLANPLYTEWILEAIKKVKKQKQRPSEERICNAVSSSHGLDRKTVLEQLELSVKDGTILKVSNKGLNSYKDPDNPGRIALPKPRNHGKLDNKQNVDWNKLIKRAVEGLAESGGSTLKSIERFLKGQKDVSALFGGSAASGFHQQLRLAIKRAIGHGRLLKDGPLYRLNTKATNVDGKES
| Sequence | E-score |
| --- | --- |
| CGATATCA | -0.00697 |
| GTCGCTAA | 0.125 |
| AGGCTCCA | -0.11 |
| AATGGGAC | -0.207 |
| CACAAGCA | -0.178 |
| AAGTGTAG | -0.234 |
| AAGTGAGA | -0.0414 |
| TGGTCTAA | -0.114 |
| CATCACCA | -0.236 |
| AGCCCCTG | -0.156 |
| GCCACAAC | 0.0238 |
| AGGAATAC | -0.0633 |
| AGGATCGC | 0.0468 |
| AGAGTGTC | -0.113 |
| AATTCTGG | -0.0826 |
| CAAAGTAG | -0.16 |
| CAACCCAG | -0.193 |
| GATAACAA | -0.0857 |
| CATGCCGC | 0.323 |
| CACTGTCG | 0.0102 |
| AGAACTCG | -0.119 |
| CCGTGATA | 0.174 |
| CGGACGGC | 0.312 |

For quick reference, copied from above (series 4):
| Change | normalised enrichment score |
| --- | --- |
| SAARRSLNFGGST [N2A] | 5.7 |
| SNARRSLNTGGST [F9T] | 0.666 |
| SNARRSLAFGGST [N8A] | 5.08 |
| SNARRSDNFGGST [L7D] | 1.42 |
| SNARRSLNVGGST [F9V] | 0.605 |
| SNAVRSLNFGGST [R4V] | 5.48 |
| SPARRSLNFGGST [N2P] | 4.62 |
| SNAARSLNFGGST [R4A] | 4.68 |
| SNARNSLNFGGST [R5N] | -0.227 |
| SVARRSLNFGGST [N2V] | 6.33 |
| SNARRSLNFQGST [G10Q] | 6.33 |
